Measurements pooled from the literature.
Parts stem from different laboratories: compare values within a part only. Positions count from the first letter of the parent shown.

Set 1
Target: HLA class I histocompatibility antigen, A alpha chain, allele A*80:01 (Homo sapiens, UniProt P04439)
Observed: peptide-MHC binding
Form: peptide
Tested at: concentration not given
| Molecule | binding |
| --- | --- |
| MQDVFTFYV | inactive |
| ARLSSPIVL | inactive |
| WLGWGHAWV | inactive |

Set 2
Target: CCNB2, cyclin fold, Cln2 fusion (human)
Technique: yeast growth competition, sequencing
Matrix: yeast
Setting: strong parent motif
Reference: not given
Reading: higher = stronger binding
Starting sequence: viral docking peptide; TSVRRALFTGGSD
| Variant | normalised enrichment score |
| --- | --- |
| TSVRRALLTGGSD [F8L] | 0.521 |
| TYVRRALFTGGSD [S2Y] | 0.317 |
| TSVRRAGFTGGSD [L7G] | 0.154 |

Set 3
Target: Prothrombin, mature alpha-thrombin (F2, Homo sapiens, UniProt P00734)
Technique: aptamer microarray, sandwich
Form: DNA with 2'F-ANA
Matrix: in vitro
Tested at: 200 nM
Setting: whole 15-mer aptamer, many near background
With: Cy3 exosite-II aptamer, 400 nM
Reading: higher = stronger binding
Oligonucleotide: GGTTGGTGTGGTTGG
| Modification | mean fluorescence intensity [a.u.] |
| --- | --- |
| 2'F-ANA at 1 3 4 5 6 8 11 13 15 | 59.4 |
| 2'F-ANA at 3 4 5 6 7 9 12 | 211 |
| 2'F-ANA at 4 5 7 8 10 15 | 75.8 |
| 2'F-ANA at 1 2 4 10 11 12 13 14 | 45.4 |
| 2'F-ANA at 2 3 7 8 10 11 12 13 15 | 418 |
| 2'F-ANA at 1 2 3 4 5 6 7 9 12 13 15 | 71.5 |
| 2'F-ANA at 5 6 8 9 11 12 14 | 52.3 |
| 2'F-ANA at 2 3 6 8 9 12 13 14 | 390 |

Mixed results
Technique: cross-linking MS
| Substance | partner | test system | conditions | measurement | result |
| --- | --- | --- | --- | --- | --- |
| PSMC2 (Homo sapiens, UniProt P35998) | ECPAS (Homo sapiens, UniProt Q5VYK3) | cell fractions | with: DSSO | cross-linked residues | K407 to K852 |
| BRMS1L (Homo sapiens, UniProt Q5PSV4) | SIN3A (Homo sapiens, UniProt Q96ST3) | – | hits only | interaction screen | cross-linked |
| HSPD1 (Homo sapiens, UniProt P10809) | UPF3A (Homo sapiens, UniProt Q9H1J1) | cell fractions | with: DSSO | cross-linked residues | K75 to K434 |
| EMC8 (Homo sapiens, UniProt O43402) | EMC2 (Homo sapiens, UniProt Q15006) | cell fractions | with: DSSO | cross-linked residues | K100 to K136 |

Some of these lines once more (set 3):
| Modification | mean fluorescence intensity [a.u.] |
| --- | --- |
| 2'F-ANA at 1 3 4 5 6 8 11 13 15 | 59.4 |
| 2'F-ANA at 2 3 7 8 10 11 12 13 15 | 418 |
